Results from different studies.
Compare with care: the assays were run in different laboratories. Values joined by “and” are separate records of one study, mostly repeats; a detail may differ. ± gives the spread as reported.
rep main protease: Replicase polyprotein 1ab, main protease (rep, Severe acute respiratory syndrome coronavirus 2, UniProt P0DTD1)
Spike glycoprotein: Spike glycoprotein (Severe acute respiratory syndrome coronavirus 2, UniProt P0DTC2)

Compound = CN(C)C(=O)COC(=O)Cc1ccc(OC(=O)c2ccc(NC(=N)N)cc2)cc1; target or system = rep main protease; test = reporter gene (mKate2), inhibitor; conditions = 20 µM; measurement = inhibition; result = -0.81%
Compound = Nc1ncnc2c1ncn2[C@H]1C[C@H](O)[C@@H](COP(=O)(O)OP(=O)(O)OP(=O)(O)O)O1; target or system = Gag-Pol polyprotein, reverse transcriptase (gag-pol, Human immunodeficiency virus type 1 group M subtype B, UniProt P04585, K653T); test = substrate; conditions = K66T mutant, added: matched T:A primer template; measurement = kcat; result = 0.242 ± 0.0107 s⁻¹
Compound = CC[C@H](C)[C@H](NC(=O)[C@@H]1CCCN1C(=O)[C@H](C)NC(=O)[C@@H]1CSSC[C@@H]2NC(=O)[C@H](CC(=O)O)NC(=O)[C@H](CCCNC(=N)N)NC(=O)[C@H](CCC(=O)O)NC(=O)[C@H](CCCNC(=N)N)NC(=O)CNC(=O)[C@H](CC(=O)O)NC(=O)[C@@H]3CSSC[C@H](NC(=O)[C@H](CCC(=O)O)NC(=O)[C@H](CC(C)C)NC(=O)CNC(=O)[C@H](C)NC(=O)[C@H](CSSC[C@H](NC(=O)[C@H](Cc4ccccc4)NC(=O)[C@@H](N)CO)C(=O)N[C@@H](CC(C)C)C(=O)N[C@@H](C(C)C)C(=O)N[C@@H](CCCCN)C(=O)N[C@@H](Cc4c[nH]c5ccccc45)C(=O)N[C@@H](CCCCN)C(=O)N[C@@H](CCC(N)=O)C(=O)N3)NC2=O)C(=O)N[C@@H](Cc2c[nH]c3ccccc23)C(=O)N[C@@H](CCCCN)C(=O)N[C@@H](CCCNC(=N)N)C(=O)N[C@@H](CO)C(=O)NCC(=O)N[C@@H](CC(N)=O)C(=O)N[C@@H](CCCCN)C(=O)N[C@@H](CO)C(=O)N[C@@H](CO)C(=O)N[C@@H](C(C)C)C(=O)N1)C(=O)N[C@H](C(=O)O)[C@@H](C)O; target or system = ASIC1 (Homo sapiens, UniProt P78348, F352A); test = outside-out patch clamp; system = HEK-293T ASIC1a knockout; conditions = 1 µM, F352A mutant; scale = baseline: before toxin; measurement = rise time fold change; result = 0.8 ± 0.2 fold
Compound = CC(C)OC(=O)[C@H](C)N[P@](=O)(OC[C@H]1O[C@@H](n2ccc(=O)[nH]c2=O)[C@](C)(F)[C@@H]1O)Oc1ccccc1; target or system = Genome polyprotein, NS5 (Yellow fever virus, UniProt P03314); measurement = kon; result = 18600 M⁻¹ s⁻¹
Compound = O=C(O[C@@H]1O[C@@H]2COC(=O)c3cc(O)c(O)c(O)c3-c3c(cc(O)c(O)c3O)C(=O)O[C@H]([C@H]1O)[C@@H]2O)c1cc(O)c(O)c(O)c1; target or system = Spike glycoprotein; test = binding, BLI; measurement = kon; result = 467 M⁻¹ s⁻¹
Compound = CC[C@H](C)[C@H](NC(=O)[C@H](CC(C)C)NC(=O)[C@H](Cc1c[nH]c2ccccc12)NC(=O)[C@H](CCC(N)=O)NC(=O)[C@@H](NC(=O)[C@H](Cc1ccccc1)NC(=O)[C@H](C)NC(=O)[C@H](CCCCNC(=O)COCCOCCNC(=O)COCCOCCNC(=O)CC[C@H](NC(=O)CCCCCCCCCCCCCCCCCCC(=O)O)C(=O)O)NC(=O)[C@H](CCC(N)=O)NC(=O)[C@H](C)NC(=O)[C@@H](NC(=O)[C@H](CCCCN)NC(=O)[C@H](CC(=O)O)NC(=O)[C@H](CC(C)C)NC(=O)C(C)(C)NC(=O)[C@@H](NC(=O)[C@H](CO)NC(=O)[C@H](Cc1ccc(O)cc1)NC(=O)[C@H](CC(=O)O)NC(=O)[C@H](CO)NC(=O)[C@@H](NC(=O)[C@H](Cc1ccccc1)NC(=O)[C@@H](NC(=O)CNC(=O)[C@H](CCC(=O)O)NC(=O)C(C)(C)NC(=O)[C@@H](N)Cc1ccc(O)cc1)[C@@H](C)O)[C@@H](C)O)[C@@H](C)CC)[C@@H](C)CC)C(C)C)C(=O)N[C@@H](C)C(=O)NCC(=O)NCC(=O)N1CCC[C@H]1C(=O)N[C@@H](CO)C(=O)N[C@@H](CO)C(=O)NCC(=O)N[C@@H](C)C(=O)N1CCC[C@H]1C(=O)N1CCC[C@H]1C(=O)N1CCC[C@H]1C(=O)N[C@@H](CO)C(N)=O; system = human, plasma; conditions = subcutaneous, 5.0 mg once weekly, week 7, multiple doses; measurement = terminal half-life; result = 139 h
Compound = CC1=C(C(=O)OC2CCCCC2)C(c2ccc([N+](=O)[O-])cc2)C2=C(CC(C)(C)CC2=O)N1 (stereo not drawn); target or system = rep main protease; test = viral replication, mKate2 reporter; system = SARS-CoV-2; conditions = 20 µM; measurement = inhibition; result = 0.0469%
Compound = CCc1c(C(=O)C(N)=O)c2c(OCC(=O)O)cccc2n1Cc1ccccc1; target or system = Daboia russelii venom phospholipase A2; test = enzyme activity, inhibitor; system = MP population; conditions = 0.1 µM, added: NOB substrate; scale = baseline: venom alone; measurement = remaining activity; result = 90.2% and 95.6% and 100%
Compound = CC(=O)c1cc([N+](=O)[O-])c(Sc2ccc(F)cc2F)s1; target or system = rep main protease; test = viral replication, Gluc reporter; system = SARS-CoV-2; conditions = 20 µM; measurement = inhibition; result = -0.41%
Compound = O=C(/C=C/c1ccc(O)c(O)c1/C=C/c1ccc(O)c(O)c1)O[C@H](Cc1ccc(O)c(O)c1)C(=O)O; target or system = Spike glycoprotein; test = binding; measurement = kon; result = 324 M⁻¹ s⁻¹
Compound = Nc1ncnc2c([C@@H]3N[C@H](CO)[C@@H](O)[C@H]3O)c[nH]c12; target or system = Marburg virus; system = HeLa, Musoke; conditions = 12.5 µM, 1 h; measurement = viral RNA copies; result = 2.03e+06 copies/mL
Compound = CC(C)(C)[C@H](NC(=O)C(F)(F)F)C(=O)N1C[C@H]2[C@@H]([C@H]1C(=O)N[C@H](C#N)C[C@@H]1CCNC1=O)C2(C)C; system = human, fasted; conditions = oral, 500 mg single dose, 28 days, no ritonavir; measurement = participants with severe adverse events; result = 0%
Compound = Cc1nn(CC(=O)N2C[C@H]3C[C@@H]2CC[C@H]3NC(=O)C=C2C3CC4CC(C3)CC2C4)c(=O)n1C; target or system = rep main protease; test = enzyme activity, inhibitor; conditions = 5 µM; measurement = inhibition; result = 12.4%
Compound = CC[C@H](C)[C@H](NC(=O)[C@H](CC(C)C)NC(=O)[C@H](Cc1c[nH]c2ccccc12)NC(=O)[C@H](CCC(N)=O)NC(=O)[C@@H](NC(=O)[C@H](Cc1ccccc1)NC(=O)[C@H](C)NC(=O)[C@H](CCCCNC(=O)COCCOCCNC(=O)COCCOCCNC(=O)CC[C@H](NC(=O)CCCCCCCCCCCCCCCCCCC(=O)O)C(=O)O)NC(=O)[C@H](CCC(N)=O)NC(=O)[C@H](C)NC(=O)[C@@H](NC(=O)[C@H](CCCCN)NC(=O)[C@H](CC(=O)O)NC(=O)[C@H](CC(C)C)NC(=O)C(C)(C)NC(=O)[C@@H](NC(=O)[C@H](CO)NC(=O)[C@H](Cc1ccc(O)cc1)NC(=O)[C@H](CC(=O)O)NC(=O)[C@H](CO)NC(=O)[C@@H](NC(=O)[C@H](Cc1ccccc1)NC(=O)[C@@H](NC(=O)CNC(=O)[C@H](CCC(=O)O)NC(=O)C(C)(C)NC(=O)[C@@H](N)Cc1ccc(O)cc1)[C@@H](C)O)[C@@H](C)O)[C@@H](C)CC)[C@@H](C)CC)C(C)C)C(=O)N[C@@H](C)C(=O)NCC(=O)NCC(=O)N1CCC[C@H]1C(=O)N[C@@H](CO)C(=O)N[C@@H](CO)C(=O)NCC(=O)N[C@@H](C)C(=O)N1CCC[C@H]1C(=O)N1CCC[C@H]1C(=O)N1CCC[C@H]1C(=O)N[C@@H](CO)C(N)=O; system = healthy subjects, single ascending dose; conditions = 1.0 mg, titre ≥1:20; measurement = treatment-induced ADA positive subjects; result = 0%
Compound = CC(=O)O[C@@H]1[C@H](N)[C@@H](OP(=O)(O)O)[C@@]2(C(=O)O)CS[C@@](O)(C(N)=O)[C@@H]1O2; target or system = DNA-directed RNA polymerase subunit beta' / DNA-directed RNA polymerase subunit beta (rpoC/rpoB, Escherichia coli, UniProt P0A8T7+P0A8V2); test = binding to elongation complex, 6-MI fluorescence titration; system = wild-type RNAP; conditions = 2′-deoxy RNA 3′-end Uracil; measurement = Kd; result = 2.8 ± 0.6 µM
Compound = CC(C)(O)C(F)(F)C(=O)N[C@@H](CNc1ccc2nnnn2n1)c1ccc2ccccc2c1; target or system = rep main protease; test = enzyme activity, inhibitor; conditions = 5 µM, run 2; measurement = inhibition; result = 14.7%
Compound = CC(C)(Oc1ccc(C(=O)c2ccc(Cl)cc2)cc1)C(=O)O; target or system = rep main protease; test = reporter gene (Gaussia luciferase), inhibitor; conditions = 20 µM; measurement = inhibition; result = 0.543%
Compound = O=C(N[C@@H]1CC[C@H]2C[C@@H]1CN2C(=O)c1cccc(-n2cncn2)c1)c1cc2c(=O)[nH]ccn2n1; target or system = rep main protease; test = enzyme activity, inhibitor; conditions = 5 µM; measurement = inhibition; result = 9.4%
Compound = O=c1cc(-c2ccc(O)cc2)oc2cc(O)c(O)c(O)c12; target or system = Spike glycoprotein; test = binding, BLI; measurement = koff; result = 0.00498 s⁻¹
Compound = Nc1ccc(C(=O)N2CC3(CCC3)C[C@H]2CNC(=O)c2cncc3ccccc23)cc1O; target or system = rep main protease; test = enzyme activity, inhibitor; conditions = 5 µM, run 2; measurement = inhibition; result = 26.6%
Compound = Cn1cnc(Cn2c(=O)[nH]/c(=N\c3cc4cn(C)nc4cc3Cl)n(Cc3cc(F)c(F)cc3F)c2=O)n1; system = human, mild renal impairment, plasma; conditions = oral, 375 mg single dose, 24 h; measurement = unbound fraction; result = 0.0128

Excerpt of the above:
Compound = CN(C)C(=O)COC(=O)Cc1ccc(OC(=O)c2ccc(NC(=N)N)cc2)cc1; target or system = rep main protease; test = reporter gene (mKate2), inhibitor; conditions = 20 µM; measurement = inhibition; result = -0.81%
